Measurements from different studies.
Each line is one published result; not all experiments were run side by side.
Transmembrane protease serine 6: Transmembrane protease serine 6 (Homo sapiens, UniProt Q8IU80)
Sequence of UniProt Q8IU80 (whole entry, looked up): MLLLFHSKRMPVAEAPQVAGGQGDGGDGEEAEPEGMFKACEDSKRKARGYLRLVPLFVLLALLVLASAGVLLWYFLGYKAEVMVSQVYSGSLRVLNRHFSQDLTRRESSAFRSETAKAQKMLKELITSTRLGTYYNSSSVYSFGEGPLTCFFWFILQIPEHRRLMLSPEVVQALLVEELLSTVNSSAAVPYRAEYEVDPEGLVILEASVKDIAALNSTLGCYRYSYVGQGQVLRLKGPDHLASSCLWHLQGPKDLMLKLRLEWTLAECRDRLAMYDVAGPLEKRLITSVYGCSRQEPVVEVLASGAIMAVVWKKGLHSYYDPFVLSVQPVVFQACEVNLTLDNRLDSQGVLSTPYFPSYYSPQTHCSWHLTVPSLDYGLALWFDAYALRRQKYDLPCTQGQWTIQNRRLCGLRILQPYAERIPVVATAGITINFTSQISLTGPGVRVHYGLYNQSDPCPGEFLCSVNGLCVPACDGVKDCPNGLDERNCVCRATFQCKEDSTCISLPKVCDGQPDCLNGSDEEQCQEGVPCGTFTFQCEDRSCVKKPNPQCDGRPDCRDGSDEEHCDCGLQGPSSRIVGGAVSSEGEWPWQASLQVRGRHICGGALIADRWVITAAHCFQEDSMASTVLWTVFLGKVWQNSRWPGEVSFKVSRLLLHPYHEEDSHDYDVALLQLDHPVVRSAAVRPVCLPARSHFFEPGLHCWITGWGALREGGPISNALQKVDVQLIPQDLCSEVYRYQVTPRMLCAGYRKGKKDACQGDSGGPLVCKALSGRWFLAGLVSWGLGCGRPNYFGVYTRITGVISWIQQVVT
MPO: Myeloperoxidase (MPO, Homo sapiens, UniProt P05164)
Sequence of UniProt P05164 (whole entry, looked up): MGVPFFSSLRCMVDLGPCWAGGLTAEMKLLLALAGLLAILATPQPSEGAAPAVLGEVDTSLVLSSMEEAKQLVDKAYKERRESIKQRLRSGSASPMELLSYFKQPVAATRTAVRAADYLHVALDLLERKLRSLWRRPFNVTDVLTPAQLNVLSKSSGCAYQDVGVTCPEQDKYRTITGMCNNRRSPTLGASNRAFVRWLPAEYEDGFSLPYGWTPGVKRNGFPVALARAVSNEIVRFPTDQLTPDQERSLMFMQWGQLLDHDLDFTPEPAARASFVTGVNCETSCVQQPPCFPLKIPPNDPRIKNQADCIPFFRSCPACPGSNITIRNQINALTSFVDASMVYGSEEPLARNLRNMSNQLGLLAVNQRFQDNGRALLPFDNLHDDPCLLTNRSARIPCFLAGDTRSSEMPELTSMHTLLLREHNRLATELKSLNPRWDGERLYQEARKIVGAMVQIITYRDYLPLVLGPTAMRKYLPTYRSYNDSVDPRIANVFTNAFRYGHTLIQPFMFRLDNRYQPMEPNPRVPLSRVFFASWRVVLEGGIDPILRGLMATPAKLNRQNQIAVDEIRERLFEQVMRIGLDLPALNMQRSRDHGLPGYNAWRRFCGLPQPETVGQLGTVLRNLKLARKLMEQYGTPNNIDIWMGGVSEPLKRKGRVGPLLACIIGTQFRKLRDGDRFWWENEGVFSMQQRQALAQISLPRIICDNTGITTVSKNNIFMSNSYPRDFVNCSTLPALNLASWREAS
CTSL: Procathepsin L (CTSL, Homo sapiens, UniProt P07711)
Sequence of UniProt P07711 (whole entry, looked up): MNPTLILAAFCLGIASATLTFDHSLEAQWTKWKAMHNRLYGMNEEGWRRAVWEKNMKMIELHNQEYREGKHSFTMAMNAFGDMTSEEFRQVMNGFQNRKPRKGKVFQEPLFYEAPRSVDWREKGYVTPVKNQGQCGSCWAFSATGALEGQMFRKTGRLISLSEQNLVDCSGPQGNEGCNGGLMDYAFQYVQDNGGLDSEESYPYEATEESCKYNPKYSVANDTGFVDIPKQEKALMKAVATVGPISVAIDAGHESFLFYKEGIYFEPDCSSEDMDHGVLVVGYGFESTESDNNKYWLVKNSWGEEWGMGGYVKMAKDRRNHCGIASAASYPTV
GSK3B: Glycogen synthase kinase-3 beta (GSK3B, Homo sapiens, UniProt P49841)
Sequence of UniProt P49841 (whole entry, looked up): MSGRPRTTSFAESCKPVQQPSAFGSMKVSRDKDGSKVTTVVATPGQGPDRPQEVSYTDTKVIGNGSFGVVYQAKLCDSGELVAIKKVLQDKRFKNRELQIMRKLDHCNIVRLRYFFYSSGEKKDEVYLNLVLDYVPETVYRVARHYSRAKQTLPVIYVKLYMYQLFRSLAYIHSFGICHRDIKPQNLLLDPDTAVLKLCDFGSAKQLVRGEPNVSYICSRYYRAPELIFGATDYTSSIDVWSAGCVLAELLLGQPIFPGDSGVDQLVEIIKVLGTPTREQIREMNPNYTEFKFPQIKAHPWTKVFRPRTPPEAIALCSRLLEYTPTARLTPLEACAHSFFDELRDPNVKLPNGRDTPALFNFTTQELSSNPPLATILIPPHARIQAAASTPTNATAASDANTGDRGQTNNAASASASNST
Sequence of UniProt O15197 (whole entry, looked up): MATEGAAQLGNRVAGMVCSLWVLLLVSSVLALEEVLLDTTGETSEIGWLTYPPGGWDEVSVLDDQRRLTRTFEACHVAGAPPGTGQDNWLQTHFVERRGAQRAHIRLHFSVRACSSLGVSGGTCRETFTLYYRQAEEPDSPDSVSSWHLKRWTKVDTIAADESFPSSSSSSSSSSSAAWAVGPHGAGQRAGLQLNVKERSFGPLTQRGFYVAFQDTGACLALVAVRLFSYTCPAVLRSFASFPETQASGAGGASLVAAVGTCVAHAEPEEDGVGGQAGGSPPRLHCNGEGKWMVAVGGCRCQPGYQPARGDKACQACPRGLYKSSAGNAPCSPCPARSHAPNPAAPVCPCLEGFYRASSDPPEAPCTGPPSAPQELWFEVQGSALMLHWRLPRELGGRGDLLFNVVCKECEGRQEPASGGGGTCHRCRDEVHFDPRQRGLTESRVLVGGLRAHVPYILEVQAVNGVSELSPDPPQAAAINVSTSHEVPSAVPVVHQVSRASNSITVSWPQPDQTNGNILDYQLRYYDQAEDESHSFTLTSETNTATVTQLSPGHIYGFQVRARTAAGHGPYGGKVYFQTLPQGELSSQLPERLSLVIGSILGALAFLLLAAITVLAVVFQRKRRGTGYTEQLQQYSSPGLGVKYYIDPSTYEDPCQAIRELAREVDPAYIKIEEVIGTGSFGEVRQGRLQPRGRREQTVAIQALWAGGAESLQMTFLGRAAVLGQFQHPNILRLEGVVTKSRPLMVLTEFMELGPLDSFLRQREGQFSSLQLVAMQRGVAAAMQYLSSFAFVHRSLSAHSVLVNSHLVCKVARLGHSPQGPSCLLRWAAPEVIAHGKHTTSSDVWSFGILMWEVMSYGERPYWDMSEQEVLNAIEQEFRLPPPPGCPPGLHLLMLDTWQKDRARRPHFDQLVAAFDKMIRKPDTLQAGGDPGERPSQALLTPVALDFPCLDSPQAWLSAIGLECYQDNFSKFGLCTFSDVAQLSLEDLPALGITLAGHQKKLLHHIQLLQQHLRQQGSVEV
Sequence of UniProt Q8NI60 (whole entry, looked up): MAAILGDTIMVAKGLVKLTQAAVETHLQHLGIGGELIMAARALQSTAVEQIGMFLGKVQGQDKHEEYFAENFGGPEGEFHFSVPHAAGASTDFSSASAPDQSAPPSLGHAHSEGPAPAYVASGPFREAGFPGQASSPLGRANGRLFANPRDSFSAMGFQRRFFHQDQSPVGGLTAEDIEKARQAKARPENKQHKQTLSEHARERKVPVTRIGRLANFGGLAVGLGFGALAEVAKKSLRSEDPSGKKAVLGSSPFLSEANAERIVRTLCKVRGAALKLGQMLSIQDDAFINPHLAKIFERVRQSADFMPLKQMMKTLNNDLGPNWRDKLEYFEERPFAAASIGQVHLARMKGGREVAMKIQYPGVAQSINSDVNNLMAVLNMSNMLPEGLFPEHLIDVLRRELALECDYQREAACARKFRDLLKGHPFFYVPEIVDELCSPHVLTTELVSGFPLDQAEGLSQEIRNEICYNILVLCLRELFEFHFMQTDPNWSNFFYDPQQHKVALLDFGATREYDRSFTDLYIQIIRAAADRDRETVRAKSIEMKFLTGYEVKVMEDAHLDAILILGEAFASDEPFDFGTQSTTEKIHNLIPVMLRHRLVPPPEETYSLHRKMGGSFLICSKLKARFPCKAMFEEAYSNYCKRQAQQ
Sequence of UniProt P36896 (whole entry, looked up): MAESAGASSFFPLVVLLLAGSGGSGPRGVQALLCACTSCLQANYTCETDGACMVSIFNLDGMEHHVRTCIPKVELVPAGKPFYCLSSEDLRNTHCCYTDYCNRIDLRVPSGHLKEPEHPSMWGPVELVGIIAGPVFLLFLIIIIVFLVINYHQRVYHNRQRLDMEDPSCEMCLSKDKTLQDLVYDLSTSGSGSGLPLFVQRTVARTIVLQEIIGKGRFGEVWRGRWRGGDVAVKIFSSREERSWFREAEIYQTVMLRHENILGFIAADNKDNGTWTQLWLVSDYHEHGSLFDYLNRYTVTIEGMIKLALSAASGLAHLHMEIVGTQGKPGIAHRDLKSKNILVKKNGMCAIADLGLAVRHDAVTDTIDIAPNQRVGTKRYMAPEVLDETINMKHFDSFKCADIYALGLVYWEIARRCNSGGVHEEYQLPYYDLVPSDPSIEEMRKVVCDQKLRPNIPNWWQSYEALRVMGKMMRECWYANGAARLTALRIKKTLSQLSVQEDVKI

Compound | tested on | assay | system | conditions | endpoint | result
C=CC[C@H](NC(=O)[C@H](Cc1cscn1)NC(=O)CCc1ccccc1)C(=O)N[C@@H](CCCNC(=N)N)C(=O)c1nc2ccccc2s1 | Transmembrane protease serine 6 | enzyme activity, inhibitor | – | 0.1 µM | remaining activity | 33%
NC/C(=C\F)COc1cccc(Cn2c(=S)[nH]c(=O)c3[nH]cnc32)c1 | MPO | enzyme activity, inhibitor | – | 5 µM | remaining activity | 1.13%
Cc1cc([C@@H](C)Nc2ccccc2C(=O)O)c2nc(N3CCC(F)(F)CC3)c(C#N)c(=O)n2c1 | Serine/threonine-protein kinase PLK4 (PLK4, Homo sapiens, UniProt O00444) | binding, competition with immobilised ligand | – | 1 µM | remaining binding | 76%
Cc1cccc(N(O)N=Nc2ccc(S(=O)(=O)Nc3nccs3)cc2)c1 | – | ABTS scavenging | – | 60 µg/mL | inhibition | 45.8%
O=c1c(O)c(-c2ccc(O)cc2)oc2cc(O)cc(O)c12 | CTSL | enzyme activity, inhibitor | – | 100 µM | remaining activity | 74.9%
CC[C@H](C)[C@H](NC(=O)[C@H](CCC(N)=O)NC(=O)[C@@H](NC(=O)[C@H](CCSC)NC(=O)[C@H](CCCCN)NC(=O)[C@H](CO)NC(=O)[C@@H](NC(=O)[C@H](CCSC)NC(=O)[C@H](CC(C)C)NC(=O)[C@H](CC(N)=O)NC(=O)[C@@H](NC(=O)[C@@H](NC(=O)[C@H](CO)NC(=O)[C@H](CC(C)C)NC(=O)[C@H](C)NC(=O)[C@H](CCCNC(=N)N)NC(=O)[C@H](CCC(=O)O)NC(=O)[C@H](Cc1ccc(O)cc1)NC(=O)[C@H](Cc1ccccc1)NC(=O)[C@H](C)NC(=O)[C@H](CC(N)=O)NC(=O)[C@@H](N)CCCCN)[C@@H](C)CC)[C@@H](C)CC)[C@@H](C)O)C(C)C)C(=O)N[C@@H](CC(N)=O)C(=O)N[C@H](C(=O)O)C(C)C | GSK3B | enzyme activity, inhibitor, radiometric | – | 10 µM, 20 min | remaining activity | 103%
CC[C@H](C)[C@H](NC(=O)[C@H](Cc1cscn1)NC(=O)CCc1ccccc1)C(=O)N[C@@H](CCCNC(=N)N)C(=O)c1nc2ccccc2s1 | Transmembrane protease serine 6 | enzyme activity, inhibitor | – | 0.1 µM | remaining activity | 2%
CC(C)=CCc1cc2c(cc1O)oc(=O)c1c3ccc(O)cc3oc21 | CTSL | enzyme activity, inhibitor | – | 100 µM | remaining activity | 113%
O=C(Nc1ccc(Oc2nnc(-c3ccc(Cl)cc3)c3ccccc23)cc1)c1ccccc1 | MCF7 | cell growth or viability, MTT | – | 0.625 µM | cell death | 96.2%
CC(C)=CCC/C(C)=C/CC/C(C)=C/CC/C(C)=C/CC/C(C)=C/CC/C(C)=C/CC/C(C)=C/CC/C(C)=C/CC/C(C)=C/CO | CTSL | enzyme activity, inhibitor | – | 100 µM | remaining activity | 137%
CC(=NNC(=O)c1ccc(N)cc1)c1ccc(Nc2nnc(-c3ccc(Cl)cc3)c3ccccc23)cc1 | MCF7 | cell growth or viability, MTT | – | 5 µM | cell death | 94.2%
CCCCC(=O)Nc1ccc(-c2ccc3ncn(CCC)c(=O)c3c2)cn1 | Ephrin type-B receptor 6 (EPHB6, Homo sapiens, UniProt O15197) | binding, competition with immobilised ligand | – | 0.5 µM | remaining binding | 100%
CC[C@H](C)[C@H](NC(=O)[C@H](CCC(N)=O)NC(=O)[C@H](CC(C)C)NC(=O)[C@H](CCSC)NC(=O)[C@H](CCCCN)NC(=O)[C@H](CO)NC(=O)[C@H](CO)NC(=O)[C@H](CCSC)NC(=O)[C@H](CC(C)C)NC(=O)[C@H](CC(N)=O)NC(=O)[C@@H](NC(=O)[C@@H](NC(=O)[C@H](CO)NC(=O)[C@H](CC(C)C)NC(=O)[C@H](CS)NC(=O)[C@H](CCCNC(=N)N)NC(=O)[C@H](CC(=O)O)NC(=O)[C@H](Cc1c[nH]c2ccccc12)NC(=O)[C@H](Cc1ccccc1)NC(=O)[C@H](C)NC(=O)[C@H](CCC(=O)O)NC(=O)[C@@H](N)CCCCN)C(C)C)[C@@H](C)CC)C(=O)N[C@@H](CC(N)=O)C(=O)N[C@@H](C)C(=O)O | GSK3B | enzyme activity, inhibitor, radiometric | – | 100 µM, 20 min | remaining activity | 108%
NC(=O)[C@@H](N)Cc1c[nH]c2ccccc12 | CTSL | enzyme activity, inhibitor | – | 100 µM | remaining activity | 130%
Cc1noc(NS(=O)(=O)c2ccc(N=NN(O)c3ccccc3)cc2)c1C | – | ABTS scavenging | – | 180 µg/mL | inhibition | 72.4%
NCc1cc2c(cc1F)C(=O)N(C1CCC(=O)NC1=O)C2 (stereo not drawn) | – | – | male CD-1 mouse, plasma | intravenous, 1 mg/kg, 1.02 min | concentration | 1400 ng/mL
COc1ccc(Cl)cc1-c1cc(=O)[nH]c(=S)n1CC(N)=O | MPO | enzyme activity, inhibitor | – | 5 µM | remaining activity | 7.82%
Cc1ccc(C[C@H](NC(=O)OC(C)(C)C)C(=O)NC/C=C/S(=O)(=O)c2ccccc2)cc1 | Rhodesain (rhodesain, Trypanosoma brucei rhodesiense, UniProt Q95PM0) | enzyme activity, inhibitor, fluorescence | – | 5 µM | remaining activity | < 1%
Oc1ccc(C2COc3cc(O)ccc3C2)cc1 (stereo not drawn) | CTSL | enzyme activity, inhibitor | – | 100 µM | remaining activity | 112%
N=C(N)NCCC[C@H](NC(=O)[C@H](Cc1ccccc1I)NC(=O)[C@H](Cc1cscn1)NC(=O)CCc1ccccc1)C(=O)c1nc2ccccc2s1 | Transmembrane protease serine 6 | enzyme activity, inhibitor | – | 0.1 µM | remaining activity | 74%
COc1cc(-c2cncc3c2CN(C)Cc2cc(N4CCNCC4)ccc2-3)cc(OC)c1OC | Serine/threonine-protein kinase TAO2 (TAOK2, Homo sapiens, UniProt Q9UL54) | enzyme activity, inhibitor | – | 1 µM | remaining activity | 111%
CNc1ncc2c(/C=C/C(=O)N3CCC(OC)CC3)nn(Cc3cccc(C(F)(F)F)c3)c2n1 | Activin receptor type-1B (ACVR1B, Homo sapiens, UniProt P36896) | enzyme activity, inhibitor, radiometric | – | 1 µM | remaining activity | 105%
C=CC(=O)N1CCC(COCC(=O)N2CCN(c3nc(-c4cnc(N)nc4C(F)F)nc(N4CCOC[C@@H]4C)n3)CC2)CC1 | Tyrosine-protein kinase ABL1, non-phosphorylated (ABL1, Homo sapiens, UniProt P00519, T315I) | binding, competition with immobilised ligand | – | 1 µM | remaining binding | 77%
N=C(N)NCCC[C@H](NC(=O)C1(NC(=O)[C@H](Cc2cscn2)NC(=O)CCc2ccccc2)CCCC1)C(=O)c1nc2ccccc2s1 | Transmembrane protease serine 6 | enzyme activity, inhibitor | – | 0.1 µM | remaining activity | 86%
O=C1c2cccc(O)c2C(=O)c2c(O)cccc21 | CTSL | enzyme activity, inhibitor | – | 100 µM | remaining activity | 15.8%
CC(C)OCCn1c(=S)[nH]c(=O)c2[nH]ccc21 | MPO | enzyme activity, inhibitor | – | 0.226 µM | remaining activity | 90.6%
Nc1ncnc2occ(-c3ccc(NC(=O)Nc4cc(C(F)(F)F)ccc4F)cc3)c12 | Atypical kinase COQ8A, mitochondrial (COQ8A, Homo sapiens, UniProt Q8NI60) | enzyme activity, inhibitor | – | 20 µM | remaining activity | 13%

Repeated from above:
Compound | tested on | assay | system | conditions | endpoint | result
O=C(Nc1ccc(Oc2nnc(-c3ccc(Cl)cc3)c3ccccc23)cc1)c1ccccc1 | MCF7 | cell growth or viability, MTT | – | 0.625 µM | cell death | 96.2%
CC(C)=CCC/C(C)=C/CC/C(C)=C/CC/C(C)=C/CC/C(C)=C/CC/C(C)=C/CC/C(C)=C/CC/C(C)=C/CC/C(C)=C/CO | CTSL | enzyme activity, inhibitor | – | 100 µM | remaining activity | 137%
CC(=NNC(=O)c1ccc(N)cc1)c1ccc(Nc2nnc(-c3ccc(Cl)cc3)c3ccccc23)cc1 | MCF7 | cell growth or viability, MTT | – | 5 µM | cell death | 94.2%
CCCCC(=O)Nc1ccc(-c2ccc3ncn(CCC)c(=O)c3c2)cn1 | Ephrin type-B receptor 6 (EPHB6, Homo sapiens, UniProt O15197) | binding, competition with immobilised ligand | – | 0.5 µM | remaining binding | 100%
